Experimental data of several laboratories.
Parts stem from different laboratories: compare values within a part only.

Sample 1 — method: protein-binding microarray; form: double-stranded DNA, one strand shown; sample: in vitro; tested at: 250 nM; notes: 60-bp whole probe; together with: salmon DNA 0.4 mg/ml; baseline: random background probes; direction: higher = stronger binding; shared flanks, not repeated: GCCTAGCAC … GTCTTGATTCGCTTGACGCTGCTG
Target: Interferon regulatory factor 7, full length, phosphomimetic (IRF7, Homo sapiens, UniProt Q92985, residues 1-503, S101K/S471D/S472D/S475D/S476D/S477D/S483D/S484D/S487D)
UniProt Q92985, sequence (whole entry, unmodified, looked up): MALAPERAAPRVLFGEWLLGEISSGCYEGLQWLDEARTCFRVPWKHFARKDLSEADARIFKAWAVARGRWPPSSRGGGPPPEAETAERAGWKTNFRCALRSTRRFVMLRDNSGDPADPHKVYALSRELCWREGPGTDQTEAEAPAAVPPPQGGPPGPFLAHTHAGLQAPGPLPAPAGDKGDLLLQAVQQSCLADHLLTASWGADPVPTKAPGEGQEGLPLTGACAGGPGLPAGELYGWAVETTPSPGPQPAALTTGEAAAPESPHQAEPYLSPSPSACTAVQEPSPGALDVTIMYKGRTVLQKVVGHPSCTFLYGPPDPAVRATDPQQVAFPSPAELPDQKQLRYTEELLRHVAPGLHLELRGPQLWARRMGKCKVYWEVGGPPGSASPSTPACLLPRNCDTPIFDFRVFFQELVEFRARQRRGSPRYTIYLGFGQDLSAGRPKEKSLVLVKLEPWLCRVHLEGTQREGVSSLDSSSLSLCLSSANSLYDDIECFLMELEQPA
| Oligonucleotide | log fluorescence |
| --- | --- |
| TTAAGTCTCCTACTGCTTTAGTGCTAG | -0.0875 z-score |
| TACGGTTTCGACACTGGGGACGTGCTA | 3.96 z-score |
| CTTTCTCTGCTCTTTTCAACAGTGCTA | 2.37 z-score |
| GGGCCAGCAGCCAGGTGGAGGTGCTAG | -1.03 z-score |
| TCAAATTTGAGTCACTGACTGTGCTAG | 0.0894 z-score |
| TTTGATATCGGGACTGGATTAGTGCTA | -0.171 z-score |
| TTAGGTTTCAGTTTCGATTAGTGCTAG | 11.8 z-score |
| GACGATCTCAGGCTCGAGACGTGCTAG | 0.0823 z-score |
| GACGAATTGGGGTTTCGAGACGTGCTA | 2.19 z-score |
| AACGGACTGCTTATCCTGACGTGCTAG | -0.173 z-score |
| CAAACACTAGTTTTCATTTTGTGCTAG | 2.64 z-score |
| TTAGGTATCGGTTTCGGTAAGTGCTAG | 7.42 z-score |
| TTAGTTATCGGGTTTCGATTAGTGCTA | 7.04 z-score |
| GACGGTTTCGACTTTCAGGACGTGCTA | 10.9 z-score |
| GACGGACTGCGTTTCGGGACGTGCTAG | 0.183 z-score |
| TCAATTTTCACGGTGGGACTGTGCTAG | 0.276 z-score |
| TTAGGTTTCGGATTTCGGTTAGTGCTA | 10.7 z-score |
| GACGGACTGGACACTGGAGACGTGCTA | -0.942 z-score |
| CTTTTATTAGTGACTCAGCACGTGCTA | 1.98 z-score |

Sample 2 — method: RNA Bind-n-Seq; form: RNA; sample: in vitro; tested at: 365 nM; baseline: no-protein control; direction: higher = stronger binding
Target: RNA binding protein fox-1 homolog 2, RRM domain, GST-SBP tag (RBFOX2, Homo sapiens, UniProt O43251-10, residues 100-194)
Notes: natural RNA segment, single round, ends assumed
Shared flanks, not repeated: GGGAGUUCUACAGUCCGACGAUC … UGGAAUUCUCGGGUGCCAA
Target sequence (chain): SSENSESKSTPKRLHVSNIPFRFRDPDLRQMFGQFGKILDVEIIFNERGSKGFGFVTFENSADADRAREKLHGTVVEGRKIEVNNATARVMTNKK
| Oligonucleotide | RBNS enrichment (R) |
| --- | --- |
| UUAAAGUUGAUUGUUCAGCUGGAGCCCAGAGAAUUUAAUUACUGUUUUUUUCUUUGUACCUGAUGUGAAUUCUAGCAACCUUUGUUAGGAAAAAGCACAGCCUCGAAUGG | 0.593 |
| GCAUCGGAGUCUCGCUAGUUUCUCAUGGUUGGGUCACAGCAUCCUUGUCGCUGUAUUAAGUGCAGUUUUCUUGGAGCCAUAACAACUGUUAAUGCUUAGGAAGCCCAUUU | 0.499 |
| AUCCCCAGACCAAAGAGGUUCUCGAAGCAGCUGUGACCAGCCCCUCCCCCCACUUGUCCCCCGUCCUUGCAGCUCCAGCACUGCCUUUGUGGGUGACCACUCCAGACCCU | 0.372 |
| AUAUCUCCCAUCAUAAGAGGCUGCAGCUGGGCUGUGCCUCCCAGUAAAACAGUCACGAACCAAACCUGUGCAGUCCCUUGUUCCAGAUCACCUGGAACUGGAUUGGGAAG | 0.304 |
| UCUCCUGUAAGAGUAUUAAUGUUGGGGCCCAAGGGCUCGAGGAAGGCAGCCUCGCUCACAGCCAGGCACGUAGCUUGCUUCUGAGAUGUGGCAGGCCCUGUCCCAAGGCC | 0.635 |
| GGUAAAUAAGGUUUUAAUUCAGAUCUAGAAGAAAGUAUUGUACGUUUGAAUGCAGAUUUUUAUCCACAGAUAGUUGUAGUGUUUAGACAUGACAGGACCUAUCGUUGAGG | 0.546 |
| AAAGACAGACUGUCCCUAUGCUUGUGCAGCUUACAAUCUAUUUAACUAUUAGAGGCCCUGUGAGAUGUAGGCAGUUAUUUACAGAUGAGAAAACUAACACAGCAGUGGCA | 1.44 |
| CACCAUUCAAGAAGAGCACAGGCGCUGUUGGACAAGGCGCCCACCACUCUCACUCCCUCCAGGAACAAAGAGCAGCUUUUGAGCCCGGACUUGUUGCUGGUUUAAAGGUU | 0.493 |

Sample 3 — method: RNA Bind-n-Seq; form: RNA; sample: in vitro; tested at: 200 nM; notes: whole 134-nt RNA, ends assumed; together with: 150 mM KCl; baseline: input library; direction: higher = stronger binding
Target: Fragile X messenger ribonucleoprotein 1, C-terminal low-complexity region (Fmr1, Mus musculus, UniProt P35922)
Shared flanks, not repeated: GGGAGUUCUACAGUCCGACGAUC … UGGAAUUCUCGGGUGUCAAGG
| Oligonucleotide | log2 enrichment |
| --- | --- |
| UCAAGUCCUGUGCUACACAUCGUAUGUACCGAAUCGGAAAGGAAAGGAAAGGGGAAAGUAUUAUGUUACGCCGUUCGGAUCUGCACUUCC | -0.5 |
| UCCUGUGCUACACAUCGUAUGUACCGAAUCGGGGCCCCCCGGCCCCCCGGGCCCCCCGGAAAGUAUUAUGUUACGCCGUUCGGAUCUGCA | 0.0395 |
| ACAAUGCAGGUGGGCAUCUUUGGGAAGUGGGGCAAGGGGGGGAUAGGGAGGGGGGUAACACUUUGGGAACAGGUGGUCCCAGGUCGUUUC | 0.782 |
| ACCAUGCAGGUGGGCAUCUUUGGGAAGUGGGGCAAGGGGGGGAUAGGGAGGGGGGUAACACUUGGGGAACAGGUGGUCCCAGGUCGUUUC | 0.755 |
| UGCUGGAGUGGCAGAAGACUUUUGAGGAGAAGCUCACGCCGUUGCUGAGUGUGCGGGAGUCACUCUCAGAGGAAGAGGCCCAGAAGAUGG | -1.45 |
| CAAGUCCUGUGCUACACAUCGUAUGUACCGAAUCGGAAAAAGGUUUUUUUGGAGGAAAGUAUUAUGUUACGCCGUUCGGAUCUGCACUUC | -0.976 |
| UGCUGAAGCUCACACCCGUGGACCACCCAGACUGCCUGCCGCUACAGGAUGCCCUCCGCAUCUCCCAGGACUUCUUUCCGGCAUCAGUGU | -0.309 |
| AGUCCUGUGCUACACAUCGUAUGUACCGAAUCGGUUUUUUUGGUUUGGUUUUUUUGGAAAGUAUUAUGUUACGCCGUUCGGAUCUGCACU | -0.966 |
| CACAGACAACACGCACCCACACAGACACAUAGGGAAGGGGUUGGGAUGGGGACAGGGUGCACAGCAGGGCGGGGUAGGACCCCAGCCCCU | 1.26 |

Sample 4 — method: RNA Bind-n-Seq; form: RNA; sample: in vitro; tested at: not given; baseline: input RNA pool; direction: higher = stronger binding
Target: RING finger protein unkempt homolog, zinc fingers 1-6, GST-SBP tag (UNK, Homo sapiens, UniProt Q9C0B0, residues 30-357)
Notes: RNA with constant flanks, human-mouse chimeric sites, ends assumed
Shared flanks, not repeated: GGGAGUUCUACAGUCCGACGAUC … CAACAGAGGAUUGAGCAUCA
Target sequence (chain): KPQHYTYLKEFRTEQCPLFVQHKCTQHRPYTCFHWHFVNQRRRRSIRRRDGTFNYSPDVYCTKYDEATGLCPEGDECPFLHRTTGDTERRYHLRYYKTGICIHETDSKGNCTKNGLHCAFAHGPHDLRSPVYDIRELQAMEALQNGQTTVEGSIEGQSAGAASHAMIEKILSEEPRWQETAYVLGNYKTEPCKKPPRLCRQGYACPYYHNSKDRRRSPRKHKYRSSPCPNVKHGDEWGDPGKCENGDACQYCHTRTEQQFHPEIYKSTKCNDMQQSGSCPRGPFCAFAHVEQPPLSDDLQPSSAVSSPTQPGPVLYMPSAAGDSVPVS
| Oligonucleotide | bound/input enrichment |
| --- | --- |
| UGACAAGGGCACUGCAGAGCCAUGCCUUUCCUUGACAUACAGAAAAAGUUCGGCCUUAGCCUGGACCGGCACUUUAUGUUCCUAAGCGGUGAACAGCCCUAUAAGAACGCCGCUCGGUGC | 0.102 ratio |
| CACGUGUCUGCAGUACUUGAUGUGGACUACUCUCCCACUGGGAAGGAGUUUGUGUCUGCUAGUUUCGAUAAGUCUAUUAGAAUCUUUCCUGUGGACAAGAGCCGAAGCAGGGAAGUGUAU | 1.86 ratio |
| AGGAGGAGAUUAAAGGGUGAGAGUGGGGUGGAAGACUGUGUCAUGGCUCUGGAGACACUGUUCAGUGUCCUGCUUUCUCUGUGCAGACUUAUGGCUCCUUACACGCCCUUUCUGACUGAG | 0.0624 ratio |
| GUAGCUGGGACUACAGAAAUGCUGGUAAUUUCAGUCACUUGCUGAUGACUUCUGAUGUCCCAGCAAAUAAUGCCACACACUGCAAUAGAGAAGAUACUUCUGAGGACCCACGUCUAAGGU | 0.591 ratio |
| UCUGGUCACACUCGUGUGUAUGGUGUUUGCUUUGUGGACACUUCACUGGGAAAGUUUUUCAUCGGCCAGUUUUCGGAUGACCGCCACUGUUCGAGAUUUAGGACGCUAGUGGCUCACUAU | 0.223 ratio |
| AUGGAACAUUUUGAUGCGUCACUCAGUACCUAUUUCAAGGCCUUCCUGGGCCCCCGAGAUACAAGAGUCAAAGGAUGGUUCCUCCUGGACAAUUACAUCCCUACGUUUAUCUGCUCUGUU | 0.106 ratio |
| UUACCCGAGAACGAGGAUGAAUUGGAGAGCACCAACAGGCGCUACACCAAGAGGGACUGUAGCACUUUCCUCAGAACUAGUGAGACGGGCAUCGUGGACCAGGUCAUGGUCACUCUCAAC | 0.212 ratio |
| GCAAAGGAUGAUGAGGCGGCAGCUGUUGCACUUUCCUCUCUCGUUCAUGCUUUGGAUGAGUUAAACAUGGUCGCCAUCGUCCGAUAUGCUUAUGACAAAAGAGCUAAUCCUCAAGUUGGU | 0.138 ratio |

Some of these lines once more (sample 3):
| Oligonucleotide | log2 enrichment |
| --- | --- |
| ACCAUGCAGGUGGGCAUCUUUGGGAAGUGGGGCAAGGGGGGGAUAGGGAGGGGGGUAACACUUGGGGAACAGGUGGUCCCAGGUCGUUUC | 0.755 |
| UGCUGGAGUGGCAGAAGACUUUUGAGGAGAAGCUCACGCCGUUGCUGAGUGUGCGGGAGUCACUCUCAGAGGAAGAGGCCCAGAAGAUGG | -1.45 |
| CAAGUCCUGUGCUACACAUCGUAUGUACCGAAUCGGAAAAAGGUUUUUUUGGAGGAAAGUAUUAUGUUACGCCGUUCGGAUCUGCACUUC | -0.976 |
